Experimental data pooled from the literature.
Lines come from different studies, so protocols differ. ± gives the spread as reported.
ABCG2: Broad substrate specificity ATP-binding cassette transporter ABCG2 (ABCG2, Homo sapiens, UniProt Q9UNQ0)
Chain of UniProt Q9UNQ0 (whole entry, looked up): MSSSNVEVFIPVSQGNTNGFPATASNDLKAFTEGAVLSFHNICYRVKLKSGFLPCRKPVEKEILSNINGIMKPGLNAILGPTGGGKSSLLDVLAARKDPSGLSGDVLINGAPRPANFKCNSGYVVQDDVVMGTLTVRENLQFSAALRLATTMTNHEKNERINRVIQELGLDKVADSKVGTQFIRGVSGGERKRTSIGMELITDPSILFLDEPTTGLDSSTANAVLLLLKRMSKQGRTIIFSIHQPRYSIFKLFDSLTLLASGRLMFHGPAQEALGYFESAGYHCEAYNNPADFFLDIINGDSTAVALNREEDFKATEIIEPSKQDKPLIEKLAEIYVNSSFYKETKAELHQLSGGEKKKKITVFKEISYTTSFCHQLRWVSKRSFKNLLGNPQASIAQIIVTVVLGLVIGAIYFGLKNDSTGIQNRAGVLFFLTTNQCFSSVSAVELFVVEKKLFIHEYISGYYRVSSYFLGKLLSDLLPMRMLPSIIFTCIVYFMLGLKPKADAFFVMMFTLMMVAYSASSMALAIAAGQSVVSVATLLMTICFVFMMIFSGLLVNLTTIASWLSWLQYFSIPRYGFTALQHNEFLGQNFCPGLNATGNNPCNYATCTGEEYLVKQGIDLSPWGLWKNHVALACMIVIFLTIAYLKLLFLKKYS
Tumor necrosis factor receptor superfamily member 9/Nectin-4: Tumor necrosis factor receptor superfamily member 9/Nectin-4 (Homo sapiens, UniProt Q07011+Q96NY8)
Chain of UniProt Q96NY8 (whole entry, looked up): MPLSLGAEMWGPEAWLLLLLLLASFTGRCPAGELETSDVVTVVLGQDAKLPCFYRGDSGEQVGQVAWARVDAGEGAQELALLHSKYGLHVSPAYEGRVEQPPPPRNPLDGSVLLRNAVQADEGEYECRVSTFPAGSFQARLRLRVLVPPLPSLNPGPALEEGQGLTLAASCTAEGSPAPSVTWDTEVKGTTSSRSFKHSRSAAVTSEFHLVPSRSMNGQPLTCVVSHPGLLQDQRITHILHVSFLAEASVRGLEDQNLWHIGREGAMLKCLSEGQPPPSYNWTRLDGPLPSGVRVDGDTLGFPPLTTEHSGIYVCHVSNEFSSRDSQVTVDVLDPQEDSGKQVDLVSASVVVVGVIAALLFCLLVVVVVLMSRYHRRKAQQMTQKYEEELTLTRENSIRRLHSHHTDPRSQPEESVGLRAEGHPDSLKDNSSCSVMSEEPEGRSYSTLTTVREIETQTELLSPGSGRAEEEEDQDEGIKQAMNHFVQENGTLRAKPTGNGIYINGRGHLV
Chain of UniProt Q07011 (whole entry, looked up): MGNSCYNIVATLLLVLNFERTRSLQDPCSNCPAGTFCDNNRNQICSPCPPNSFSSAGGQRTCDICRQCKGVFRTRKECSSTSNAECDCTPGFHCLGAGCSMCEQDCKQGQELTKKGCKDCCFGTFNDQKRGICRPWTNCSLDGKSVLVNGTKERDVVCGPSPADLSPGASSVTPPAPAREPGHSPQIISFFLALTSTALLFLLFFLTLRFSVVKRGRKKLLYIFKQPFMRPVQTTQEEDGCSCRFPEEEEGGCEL
SLC47A2: Multidrug and toxin extrusion protein 2 (SLC47A2, Homo sapiens, UniProt Q86VL8)
Chain of UniProt Q86VL8 (whole entry, looked up): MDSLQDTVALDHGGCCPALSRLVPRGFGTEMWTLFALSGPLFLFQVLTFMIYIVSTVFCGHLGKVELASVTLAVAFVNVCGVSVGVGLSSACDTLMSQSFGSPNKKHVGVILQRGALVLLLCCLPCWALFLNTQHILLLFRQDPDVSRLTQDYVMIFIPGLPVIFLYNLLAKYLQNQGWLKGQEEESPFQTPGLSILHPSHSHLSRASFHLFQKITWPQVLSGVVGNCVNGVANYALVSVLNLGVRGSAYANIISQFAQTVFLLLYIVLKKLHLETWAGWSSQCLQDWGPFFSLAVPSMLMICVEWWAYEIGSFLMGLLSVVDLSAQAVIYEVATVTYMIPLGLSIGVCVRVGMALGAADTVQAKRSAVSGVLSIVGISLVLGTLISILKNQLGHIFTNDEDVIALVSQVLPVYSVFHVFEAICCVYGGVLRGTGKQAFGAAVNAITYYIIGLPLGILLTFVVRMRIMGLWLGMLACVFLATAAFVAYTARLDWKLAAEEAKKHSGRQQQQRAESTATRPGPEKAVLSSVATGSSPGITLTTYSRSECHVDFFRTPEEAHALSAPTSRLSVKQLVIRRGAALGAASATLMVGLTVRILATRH
SLCO1B3: Solute carrier organic anion transporter family member 1B3 (SLCO1B3, Homo sapiens, UniProt Q9NPD5)
Chain of UniProt Q9NPD5 (whole entry, looked up): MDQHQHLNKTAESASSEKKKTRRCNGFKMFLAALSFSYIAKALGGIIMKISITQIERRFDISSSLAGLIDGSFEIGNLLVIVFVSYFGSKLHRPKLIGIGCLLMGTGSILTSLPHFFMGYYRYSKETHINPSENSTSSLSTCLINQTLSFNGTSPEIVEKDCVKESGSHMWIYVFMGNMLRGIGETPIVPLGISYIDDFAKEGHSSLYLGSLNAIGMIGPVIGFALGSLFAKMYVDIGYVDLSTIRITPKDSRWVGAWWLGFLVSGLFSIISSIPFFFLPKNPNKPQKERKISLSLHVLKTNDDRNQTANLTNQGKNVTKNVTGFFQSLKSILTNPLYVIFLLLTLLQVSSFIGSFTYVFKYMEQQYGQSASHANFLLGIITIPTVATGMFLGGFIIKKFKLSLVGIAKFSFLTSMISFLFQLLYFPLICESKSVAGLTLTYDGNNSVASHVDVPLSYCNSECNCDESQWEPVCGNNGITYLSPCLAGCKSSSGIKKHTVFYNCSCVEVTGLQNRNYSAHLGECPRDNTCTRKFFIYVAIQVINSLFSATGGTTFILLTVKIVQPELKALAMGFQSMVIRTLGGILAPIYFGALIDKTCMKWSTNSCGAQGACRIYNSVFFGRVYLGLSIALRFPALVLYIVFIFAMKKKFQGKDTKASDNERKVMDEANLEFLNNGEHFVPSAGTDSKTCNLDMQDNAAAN
Chain of UniProt Q4U2R8 (whole entry, looked up): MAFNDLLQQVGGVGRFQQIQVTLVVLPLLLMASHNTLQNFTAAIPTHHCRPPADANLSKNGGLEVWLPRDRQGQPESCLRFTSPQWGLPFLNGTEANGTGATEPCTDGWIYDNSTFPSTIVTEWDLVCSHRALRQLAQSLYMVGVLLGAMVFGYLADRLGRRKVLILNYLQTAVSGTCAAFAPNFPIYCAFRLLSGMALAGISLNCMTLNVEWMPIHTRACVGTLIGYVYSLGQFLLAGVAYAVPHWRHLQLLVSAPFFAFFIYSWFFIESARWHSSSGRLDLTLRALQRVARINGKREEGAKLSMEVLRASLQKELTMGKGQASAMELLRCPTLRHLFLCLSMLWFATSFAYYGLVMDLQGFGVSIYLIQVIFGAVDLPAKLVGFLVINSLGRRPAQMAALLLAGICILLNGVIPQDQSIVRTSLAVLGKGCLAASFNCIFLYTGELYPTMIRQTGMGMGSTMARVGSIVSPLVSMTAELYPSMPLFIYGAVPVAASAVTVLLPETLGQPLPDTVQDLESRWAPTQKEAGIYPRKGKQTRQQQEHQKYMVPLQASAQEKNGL
Chain of UniProt P33261 (whole entry, looked up): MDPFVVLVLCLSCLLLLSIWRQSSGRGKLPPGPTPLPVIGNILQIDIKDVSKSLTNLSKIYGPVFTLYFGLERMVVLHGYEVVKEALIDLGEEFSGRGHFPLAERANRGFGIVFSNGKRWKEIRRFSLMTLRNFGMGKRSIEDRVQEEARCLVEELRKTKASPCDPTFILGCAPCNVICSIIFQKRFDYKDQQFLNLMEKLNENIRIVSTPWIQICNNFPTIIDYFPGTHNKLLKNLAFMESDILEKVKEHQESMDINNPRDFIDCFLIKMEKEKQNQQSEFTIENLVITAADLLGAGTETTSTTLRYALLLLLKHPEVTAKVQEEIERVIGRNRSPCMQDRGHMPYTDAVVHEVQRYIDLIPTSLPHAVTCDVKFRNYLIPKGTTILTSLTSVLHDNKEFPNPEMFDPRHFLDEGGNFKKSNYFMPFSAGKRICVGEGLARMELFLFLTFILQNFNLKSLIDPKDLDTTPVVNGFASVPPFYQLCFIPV
Chain of UniProt P03372 (whole entry, unmodified, looked up): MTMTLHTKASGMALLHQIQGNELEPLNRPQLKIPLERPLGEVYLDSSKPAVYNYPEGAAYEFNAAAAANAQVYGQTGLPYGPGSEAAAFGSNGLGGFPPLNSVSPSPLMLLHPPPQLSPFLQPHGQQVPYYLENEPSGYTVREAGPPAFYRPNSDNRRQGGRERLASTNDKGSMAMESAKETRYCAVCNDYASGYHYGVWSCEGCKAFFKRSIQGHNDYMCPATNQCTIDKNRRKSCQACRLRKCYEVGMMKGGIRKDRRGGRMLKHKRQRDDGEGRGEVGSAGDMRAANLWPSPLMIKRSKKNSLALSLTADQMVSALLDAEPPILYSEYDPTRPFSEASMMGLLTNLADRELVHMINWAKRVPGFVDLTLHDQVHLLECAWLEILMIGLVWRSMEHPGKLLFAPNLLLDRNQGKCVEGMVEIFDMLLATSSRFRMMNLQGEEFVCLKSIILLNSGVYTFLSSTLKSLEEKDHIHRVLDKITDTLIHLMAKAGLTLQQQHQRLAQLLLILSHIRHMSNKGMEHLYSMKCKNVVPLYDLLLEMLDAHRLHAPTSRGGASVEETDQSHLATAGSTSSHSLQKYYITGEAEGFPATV
Chain of UniProt P05804 (whole entry, looked up): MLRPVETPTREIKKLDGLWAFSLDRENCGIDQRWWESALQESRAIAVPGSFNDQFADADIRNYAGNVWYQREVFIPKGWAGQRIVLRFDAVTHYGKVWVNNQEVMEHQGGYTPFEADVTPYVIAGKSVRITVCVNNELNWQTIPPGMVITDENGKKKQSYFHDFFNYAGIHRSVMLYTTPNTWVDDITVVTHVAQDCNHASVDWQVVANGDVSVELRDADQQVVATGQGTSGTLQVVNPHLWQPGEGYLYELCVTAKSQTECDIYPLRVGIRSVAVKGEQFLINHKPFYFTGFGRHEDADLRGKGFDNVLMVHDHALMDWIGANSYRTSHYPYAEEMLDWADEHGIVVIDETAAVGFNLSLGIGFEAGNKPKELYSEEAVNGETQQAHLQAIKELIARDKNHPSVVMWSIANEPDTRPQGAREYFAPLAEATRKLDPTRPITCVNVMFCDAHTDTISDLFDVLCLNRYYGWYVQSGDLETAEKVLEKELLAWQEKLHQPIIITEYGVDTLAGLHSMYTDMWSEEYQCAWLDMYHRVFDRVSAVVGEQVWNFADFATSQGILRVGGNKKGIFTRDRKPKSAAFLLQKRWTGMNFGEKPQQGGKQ

The inhibition of CCCCc1nc(Cl)c(CO)n1Cc1ccc(-c2ccccc2-c2nn[nH]n2)cc1 is reported as 88.9% (ABCG2; transport, inhibitor; 100 µM, 5 (unit not given), pH 7, added: CCK-8).
The Emax of CCCC[C@@H]1NC(=O)[C@H](Cc2ccc(O)cc2)NC(=O)[C@@H]2CCCN2C(=O)[C@H](CC(=O)O)NC(=O)[C@H](C)NC(=O)[C@H](Cc2ccccc2)NC(=O)[C@@H]2CSCCC(=O)N3CN(CN(C3)C(=O)CCSC[C@@H](C(=O)N[C@@H](C)C(N)=O)NC1=O)C(=O)CCSC[C@H](NC(C)=O)C(=O)N[C@@H](CC(C)(C)C)C(=O)N1CCC[C@H]1C(=O)N[C@@H](CCC(=O)O)C(=O)N[C@H](CCCCNC(=O)CCc1cn(CCOCCOCCOCCOCCOCCC(=O)NCCCC[C@H]3NC(=O)[C@H](Cc4cccc5ccccc45)NC(=O)[C@@H]4CCCN4C(=O)[C@@H](NC(C)=O)CSCCC(=O)N4CN5CN(C4)C(=O)CCSC[C@H](NC3=O)C(=O)N[C@@H](CCSC)C(=O)N[C@@H](CCCCNC(=N)N)C(=O)N[C@@H](CCC(=O)O)C(=O)N[C@@H](Cc3c[nH]c4ccccc34)C(=O)N[C@@H](CO)C(=O)N[C@@H]([C@@H](C)O)C(=O)N3CCC[C@H]3C(=O)N3C[C@H](O)C[C@H]3C(=O)N[C@@H](Cc3c[nH]c4ccccc34)C(=O)N[C@H](C(N)=O)CSCCC5=O)nn1)C(=O)N1CCC[C@H]1C(=O)N[C@@H](Cc1ccc(O)cc1)C(=O)N2 is reported as 42 fold (Tumor necrosis factor receptor superfamily member 9/Nectin-4; reporter gene, agonist, luciferase reporter; CD137 Jurkat reporter with HT-1376; 6 h, geometric mean; relative to: wells without compound).
CCC(C)(c1ccc(O)cc1)c1ccc(O)cc1 has a ΔH of -16.9 kcal/mol (Estrogen receptor (ESR1, Homo sapiens, UniProt P03372); ITC; 25 °C).
For CCCC[C@@H]1NC(=O)[C@H](Cc2ccc(O)cc2)NC(=O)[C@@H]2CCCN2C(=O)[C@H](CC(=O)O)NC(=O)[C@H](C)NC(=O)[C@H](Cc2ccccc2)NC(=O)[C@@H]2CSCCC(=O)N3CN(CN(C3)C(=O)CCSC[C@@H](C(=O)N[C@@H](C)C(N)=O)NC1=O)C(=O)CCSC[C@H](NC(C)=O)C(=O)N[C@@H](CC(C)(C)C)C(=O)N1CCC[C@H]1C(=O)N[C@@H](CCC(=O)O)C(=O)N[C@H](CCCCNC(=O)CCc1cn(CCOCCOCCOCCOCCOCCC(=O)NCCCC[C@H]3NC(=O)[C@H](Cc4cccc5ccccc45)NC(=O)[C@@H]4CCCN4C(=O)CCSCCC(=O)N4CN5CN(C4)C(=O)CCSC[C@H](NC3=O)C(=O)N[C@@H](CCSC)C(=O)N[C@@H](CCCCNC(=N)N)C(=O)N[C@@H](CC(=O)O)C(=O)N[C@@H](Cc3c[nH]c4ccccc34)C(=O)N[C@@H](CO)C(=O)N[C@@H]([C@@H](C)O)C(=O)N3CCC[C@H]3C(=O)N3C[C@H](O)C[C@H]3C(=O)N[C@@H](Cc3c[nH]c4ccccc34)C(=O)N[C@H](C(N)=O)CSCCC5=O)nn1)C(=O)N1CCC[C@H]1C(=O)N[C@@H](Cc1ccc(O)cc1)C(=O)N2, the Emax was 43 fold (Tumor necrosis factor receptor superfamily member 9/Nectin-4; reporter gene, agonist, luciferase reporter; CD137 Jurkat reporter with HT-1376; 6 h, geometric mean; relative to: wells without compound).
CC1(C)[C@H](C=C(Cl)Cl)[C@H]1C(=O)OCc1cccc(Oc2ccccc2)c1 gave an enzyme contribution of 9.07% (CES2 human cytosolic; 0.1 µM, age 1 year).
CC[C@H]1OC(=O)[C@H](C)[C@@H](O[C@H]2C[C@@](C)(OC)[C@@H](O)[C@H](C)O2)[C@H](C)[C@@H](O[C@@H]2O[C@H](C)C[C@H](N(C)C)[C@H]2O)[C@](C)(O)C[C@@H](C)CN(C)[C@H](C)[C@@H](O)[C@]1(C)O gave an inhibition of 23% (SLC47A2; transport, inhibitor; 50 µM, added: thiamine).
For O=c1ccc2ncc(=O)n3c2n1C[C@H]3CN1CCC(NCc2cc3c(cn2)OCCC3)CC1, the uptake ratio was 11.5 fold (SLC47A2; SLC47A2-overexpressing cells; relative to: control cells).
The inhibition of NC(=O)c1nc(F)c[nH]c1=O is reported as 58.1% (SLCO1B3; transport, inhibitor; transiently transfected cells; 100 µM, 10 (unit not given), added: CCK-8).
For CCCC[C@@H]1NC(=O)[C@H](Cc2ccc(O)cc2)NC(=O)[C@@H]2CCCN2C(=O)[C@H](CC(=O)O)NC(=O)[C@H](C)NC(=O)[C@H](Cc2ccccc2)NC(=O)[C@@H]2CSCCC(=O)N3CN(CN(C3)C(=O)CCSC[C@@H](C(N)=O)NC1=O)C(=O)CCSCCC(=O)N[C@@H](CC(C)(C)C)C(=O)N1CCC[C@H]1C(=O)N[C@@H](CCC(=O)O)C(=O)N[C@H](CCCCNC(=O)CCc1cn(CCOCCOCCOCCN(CCOCCOCCOCCC(=O)N[C@H]3CSCCC(=O)N4CN5CN(C4)C(=O)CCSC[C@H](NC(=O)[C@@H](CC(=O)O)NC(=O)[C@H](Cc4cccc6ccccc46)NC(=O)[C@@H]4CCCN4C3=O)C(=O)N[C@@H](CCSC)C(=O)N[C@@H](CCCCNC(=N)N)C(=O)N[C@@H](CC(=O)O)C(=O)N[C@@H](Cc3c[nH]c4ccccc34)C(=O)N[C@@H](CO)C(=O)N[C@@H]([C@@H](C)O)C(=O)N3CCC[C@H]3C(=O)N3C[C@H](O)C[C@H]3C(=O)N[C@@H](Cc3c[nH]c4ccccc34)C(=O)N[C@H](C(N)=O)CSCCC5=O)CCOCCOCCOCCn3cc(CCC(=O)NCCCC[C@H]4NC(=O)[C@H](CCC(=O)O)NC(=O)[C@@H]5CCCN5C(=O)[C@H](CC(C)(C)C)NC(=O)CCSCCC(=O)N5CN6CN(C5)C(=O)CCSC[C@H](NC(=O)[C@H](Cc5ccc(O)cc5)NC(=O)[C@@H]5CCCN5C4=O)C(=O)N[C@@H](Cc4ccccc4)C(=O)N[C@@H](C)C(=O)N[C@@H](CC(=O)O)C(=O)N4CCC[C@H]4C(=O)N[C@@H](Cc4ccc(O)cc4)C(=O)N[C@@H](CCCC)C(=O)N[C@H](C(N)=O)CSCCC6=O)nn3)nn1)C(=O)N1CCC[C@H]1C(=O)N[C@@H](Cc1ccc(O)cc1)C(=O)N2, the Emax was 67 fold (Tumor necrosis factor receptor superfamily member 9/Nectin-4; reporter gene, agonist, luciferase reporter; CD137 Jurkat reporter with HT-1376; 6 h, geometric mean; relative to: wells without compound).
O=C(Nc1cnccc1Cl)N1CCN(Cc2ccc3c(c2)OC(F)(F)O3)CC1 has an inhibition of 21% (Cytochrome P450 2C19 (CYP2C19, Homo sapiens, UniProt P33261); enzyme activity, inhibitor; 10 µM, added: 3-cyano-7-ethoxycoumarin substrate).
CC(Nc1nc(N2CCNCC2C)nc2ccccc12)c1ccccc1 (centres unmarked) gave a maximum response of -9.08% (Vero-E6; CellTiter-Glo ATP; 72 h, second round 5-point; relative to: DMSO 0%, hyamine -100%, more negative, more toxic).
COC(=O)c1cc(O)c(O)c(O)c1: “aglycone concentration increase” no less than 1.25 fold (Beta-glucuronidase (uidA, Escherichia coli, UniProt P05804); concentration not given, 6 h, pH 7.4, glucuronide hydrolysis; relative to: untreated control).
CC1(C)[C@H](C(=O)O[C@H](C#N)c2cccc(Oc3ccccc3)c2)[C@@H]1C=C(Br)Br has an enzyme contribution of 0.37% (CES2 human cytosolic; 0.1 µM, age 1 year).
CC1(C)C(C=C(Cl)Cl)C1C(=O)OCc1cccc(Oc2ccccc2)c1 (centres unmarked) — result for “BCRP ATPase activity”: “inhibited” (ABCG2; inhibition, inhibitor; 0.03 to 100 µM, added: sulfasalazine 10 µM).
With CCCC[C@@H]1NC(=O)[C@H](Cc2ccc(O)cc2)NC(=O)[C@@H]2CCCN2C(=O)[C@H](CC(=O)O)NC(=O)[C@H](C)NC(=O)[C@H](Cc2ccccc2)NC(=O)[C@@H]2CSCCC(=O)N3CN(CN(C3)C(=O)CCSC[C@@H](C(=O)N[C@@H](C)C(N)=O)NC1=O)C(=O)CCSC[C@H](NC(C)=O)C(=O)N[C@@H](CC(C)(C)C)C(=O)N1CCC[C@H]1C(=O)N[C@@H](CCC(=O)O)C(=O)N[C@H](CCCCNC(=O)CCc1cn(CCOCCOCCOCCOCCOCCC(=O)N[C@H]3CSCCC(=O)N4CN5CN(C4)C(=O)CCSC[C@H](NC(=O)CNC(=O)[C@H](Cc4ccccc4)NC(=O)[C@@H]4CCCN4C3=O)C(=O)N[C@@H](CCSC)C(=O)N[C@@H](CCCCNC(=N)N)C(=O)N[C@@H](CC(=O)O)C(=O)N[C@@H](Cc3c[nH]c4ccccc34)C(=O)N[C@@H](CO)C(=O)N[C@@H]([C@@H](C)O)C(=O)N3CCC[C@H]3C(=O)N3C[C@H](O)C[C@H]3C(=O)N[C@@H](Cc3c[nH]c4ccccc34)C(=O)N[C@H](C(N)=O)CSCCC5=O)nn1)C(=O)N1CCC[C@H]1C(=O)N[C@@H](Cc1ccc(O)cc1)C(=O)N2 the Emax was 33 fold (Tumor necrosis factor receptor superfamily member 9/Nectin-4; reporter gene, agonist, luciferase reporter; CD137 Jurkat reporter with HT-1376; 6 h, geometric mean; relative to: wells without compound).
CN(C)CCNC(=O)c1ccc2c(c1)C1(CCN(CC3CC3)C1)CN2Cc1ccccc1 (centres unmarked) gave a cytotoxicity efficacy of 0% (Vero-E6; CellTiter-Glo ATP; concentration not given, 72 h, second round 5-point; relative to: DMSO 0%, hyamine -100%, more negative, more toxic).
The inhibition of Cc1oncc1C(=O)Nc1ccc(C(F)(F)F)cc1 is reported as 94.5% (SLCO1B3; transport, inhibitor; transiently transfected cells; 100 µM, 10 (unit not given), added: CCK-8).
The CLint of O=C(O)C(F)(F)C(F)(F)C(F)(F)C(F)(F)C(F)(F)C(F)(F)C(F)(F)F is reported as 9.67 ± 3.3 µL/min/mg (Solute carrier family 22 member 6 (SLC22A6, Homo sapiens, UniProt Q4U2R8); uptake, substrate; HEK293 cells stably expressing SLC22A6, HBSS with HEPES; pH 7.4).
CCCC[C@@H]1NC(=O)[C@H](Cc2ccc(O)cc2)NC(=O)[C@@H]2CCCN2C(=O)[C@H](CC(=O)O)NC(=O)[C@H](C)NC(=O)[C@H](Cc2ccccc2)NC(=O)[C@@H]2CSCCC(=O)N3CN(CN(C3)C(=O)CCSC[C@H](NC(C)=O)C(=O)N[C@@H](CC(C)(C)C)C(=O)N3CCC[C@H]3C(=O)N[C@@H](CCC(=O)O)C(=O)N[C@H](CCCCNC(=O)CCc3cn(CCOCCOCCOCCOCCOCCC(=O)N[C@H]4CSCCC(=O)N5CN6CN(C5)C(=O)CCSC[C@H](NC(=O)[C@@H](CC(=O)O)NC(=O)[C@H](Cc5cccc7ccccc57)NC(=O)[C@@H]5CCCN5C4=O)C(=O)N[C@@H](CCSC)C(=O)N[C@@H](CCCCNC(=N)N)C(=O)N[C@@H](CC(=O)O)C(=O)N[C@@H](Cc4c[nH]c5ccccc45)C(=O)N[C@@H](CO)C(=O)N[C@@H]([C@@H](C)O)C(=O)N4CCC[C@H]4C(=O)N4C[C@H](O)C[C@H]4C(=O)N[C@@H](Cc4c[nH]c5ccccc45)C(=O)N[C@H](C(N)=O)CSCCC6=O)nn3)C(=O)N3CCC[C@H]3C(=O)N[C@@H](Cc3ccc(O)cc3)C(=O)N2)C(=O)CCSC[C@@H](C(N)=O)NC1=O has an Emax of 45 fold (Tumor necrosis factor receptor superfamily member 9/Nectin-4; reporter gene, agonist, luciferase reporter; CD137 Jurkat reporter with HT-1376; 6 h, geometric mean; relative to: wells without compound).
With COc1cc2c(c(OC)c1OC)-c1ccc(OC)c(=O)cc1[C@@H](NC(C)=O)CC2 the inhibition was 66.2% (SLCO1B3; transport, inhibitor; transiently transfected cells; 100 µM, 10 (unit not given), added: CCK-8).

Excerpt of the above:
For O=c1ccc2ncc(=O)n3c2n1C[C@H]3CN1CCC(NCc2cc3c(cn2)OCCC3)CC1, the uptake ratio was 11.5 fold (SLC47A2; SLC47A2-overexpressing cells; relative to: control cells).
For CCCC[C@@H]1NC(=O)[C@H](Cc2ccc(O)cc2)NC(=O)[C@@H]2CCCN2C(=O)[C@H](CC(=O)O)NC(=O)[C@H](C)NC(=O)[C@H](Cc2ccccc2)NC(=O)[C@@H]2CSCCC(=O)N3CN(CN(C3)C(=O)CCSC[C@@H](C(=O)N[C@@H](C)C(N)=O)NC1=O)C(=O)CCSC[C@H](NC(C)=O)C(=O)N[C@@H](CC(C)(C)C)C(=O)N1CCC[C@H]1C(=O)N[C@@H](CCC(=O)O)C(=O)N[C@H](CCCCNC(=O)CCc1cn(CCOCCOCCOCCOCCOCCC(=O)NCCCC[C@H]3NC(=O)[C@H](Cc4cccc5ccccc45)NC(=O)[C@@H]4CCCN4C(=O)CCSCCC(=O)N4CN5CN(C4)C(=O)CCSC[C@H](NC3=O)C(=O)N[C@@H](CCSC)C(=O)N[C@@H](CCCCNC(=N)N)C(=O)N[C@@H](CC(=O)O)C(=O)N[C@@H](Cc3c[nH]c4ccccc34)C(=O)N[C@@H](CO)C(=O)N[C@@H]([C@@H](C)O)C(=O)N3CCC[C@H]3C(=O)N3C[C@H](O)C[C@H]3C(=O)N[C@@H](Cc3c[nH]c4ccccc34)C(=O)N[C@H](C(N)=O)CSCCC5=O)nn1)C(=O)N1CCC[C@H]1C(=O)N[C@@H](Cc1ccc(O)cc1)C(=O)N2, the Emax was 43 fold (Tumor necrosis factor receptor superfamily member 9/Nectin-4; reporter gene, agonist, luciferase reporter; CD137 Jurkat reporter with HT-1376; 6 h, geometric mean; relative to: wells without compound).
